Results collected from several papers.
A part holds a random share of what one study measured.

Series 1
Target: RNA binding protein fox-1 homolog 2, RRM domain, GST-SBP tag (RBFOX2, Homo sapiens, UniProt O43251-10, residues 100-194)
Technique: RNA Bind-n-Seq
Molecule type: RNA
Matrix: in vitro
Tested at: 365 nM
Notes: natural RNA segment, single round, ends assumed
Relative to: no-protein control
Direction: higher = stronger binding
Construct (chain): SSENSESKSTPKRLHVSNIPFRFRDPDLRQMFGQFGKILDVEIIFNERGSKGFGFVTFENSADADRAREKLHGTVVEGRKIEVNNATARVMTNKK
Strand | RBNS enrichment (R)
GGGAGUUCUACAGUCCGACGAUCGAUGGAGCUCCCCCUCCCCACAGGGCUGCCAUUACCAGACCACGGCCCUGCAGGGCCCUGGGCUCCUGUCUGCUGAUGCUGCCCGCCUCACCUGCAGAGGUGCCCAUCAGUGGAAUUCUCGGGUGCCAA | 0.498
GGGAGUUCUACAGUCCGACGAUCGUAUAUAAAAGUAAAGAUGUAAUUAUAGGAUAUAGUGUUCCUGCUUUGUUUAAUAAGAACCUCAUUUAAACUUGACAGCUAUGGUAUUUUUUUAAUGAUAACUUCUUUUCUGGAAUUCUCGGGUGCCAA | 0.41
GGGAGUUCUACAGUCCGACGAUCCCCAAGACAGUCUUUCCUAACUGCCUCCCUACUUGGAGUAGUCACAUACUCAAGUGCACACCACAGCCCGAGGUGGAGACCUGGGCCACACCCUUCCCCUCCUGACAUCUUGGAAUUCUCGGGUGCCAA | 0.395
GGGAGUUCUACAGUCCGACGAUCACUUUACUUUGAAGCAAACGUCUUUUUUUUAAAGAUUGCUUCACCAAUGAUGCUGUCAGAUAUAUCUGCUUUCUCAAGUUUAAAAGAAUUCAAAUUAACUUCCUUUGAGUUGGAAUUCUCGGGUGCCAA | 0.373
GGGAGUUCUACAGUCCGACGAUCGGCAGUGCCCACCAUGCACCCCUGAUGUUCGCCGUCUGGCGAGCCCUUAGCCUUGCUGUAGAGACUUCCGUCACCCUUGGUAGAGUUUAUUUUUUUGAUGGCUAAGAUACUGGAAUUCUCGGGUGCCAA | 0.721
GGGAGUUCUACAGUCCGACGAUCAUUGUUUGAUAUUGUCACCUAGCAGAUAUGUAUUACUUUUCUGCAAUGUUAUUAUUGGCUUGCACUUUGUGAGUAUUCUAUGUAAAAAUAUAUAUGUAUAUAAAAUAUAUUGGAAUUCUCGGGUGCCAA | 1.17
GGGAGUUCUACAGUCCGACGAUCUUGAAGAGUUUUAGAAGAAAUUCUCAUGGAAAUGCCCUAUCCCUGGACCUUCAGCCUCUUCUCUUCCAGUUUACCUCCAGGUGGGGCUGAUAUGCCACAUAGGAUGCUCCUGGAAUUCUCGGGUGCCAA | 0.446
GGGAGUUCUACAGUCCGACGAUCUGUCCAUUUUACUGUUUUGGAUCUAAUAAACCAAUUGGUUUUUUUUUUUUUUUUGUACCUUUCUGGGAUUUUAAUUCUUGCUAGUUACCGAUGUAUGAUGUGAAAAGGAAUGGAAUUCUCGGGUGCCAA | 1.09
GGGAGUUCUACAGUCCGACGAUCAACAAAUACUGAAAAUCCCAAGGAACCUGGGAGAAUCUGAAAAUGAACUCCAGUCUUCAGCUCGAAGUUGCCUCUAGGGUUCCUCCUGGUCACCCCCGGGCCCAGCCUGGUGGAAUUCUCGGGUGCCAA | 0.337

Series 2
Target: Fragile X messenger ribonucleoprotein 1, C-terminal low-complexity region (Fmr1, Mus musculus, UniProt P35922)
Technique: RNA Bind-n-Seq
Molecule type: RNA
Matrix: in vitro
Tested at: 200 nM
Notes: whole 134-nt RNA, ends assumed
With: 150 mM KCl
Relative to: input library
Direction: higher = stronger binding
Strand | log2 enrichment
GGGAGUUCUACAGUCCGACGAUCCCUGUGCUACACAUCGUAUGUACCGAAUCGGGGAAAAAAGGGAAAAAAGGGAAAAAAGGGAAAGUAUUAUGUUACGCCGUUCGGAUCUGCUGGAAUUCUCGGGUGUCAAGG | -0.484
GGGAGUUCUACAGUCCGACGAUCUCCUGUGCUACACAUCGUAUGUACCGAAUCAAAUUUAAAUUUUUUUAAAUUUUUUUAAAAAAGUAUUAUGUUACGCCGUUCGGAUCUGCAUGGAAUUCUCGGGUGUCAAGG | -0.54
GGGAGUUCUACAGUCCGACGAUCGUCCUGUGCUACACAUCGUAUGUACCGAAUCGGAAAAAAGGGAAAAAAGGAAAAAAGGGAAAGUAUUAUGUUACGCCGUUCGGAUCUGCAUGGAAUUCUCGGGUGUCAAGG | -0.851
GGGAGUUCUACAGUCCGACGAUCGGUGGACUAUGGUGCAACAGCAGAAGAGCUGGAAGCUCACUUUCAUGGCUGUGGUUCAGUCAACCGUGUUACCAUACUGUGUGACAAAUUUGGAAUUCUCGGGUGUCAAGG | -0.884
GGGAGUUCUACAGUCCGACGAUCCCUGUGCUACACAUCGUAUGUACCGAAUCGGGGUUUUUUGGUUUUUUGGGGUUUUUUGGGGAAAGUAUUAUGUUACGCCGUUCGGAUCUGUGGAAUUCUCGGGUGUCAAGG | -0.686
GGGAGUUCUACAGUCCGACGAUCCACAGACAACACGCACCCACACAGACACAGAGGGAAGGGGUUGGGAUGGGGACAGGGUCCACAGCAGGGCGGGGUAGGACCCCAGCCCCUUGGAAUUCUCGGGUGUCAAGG | 1.19
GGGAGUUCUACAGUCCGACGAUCUUGAUGUUAGUAAAUUUGGUGUAAUACGUGGGGCUUCCAUAUUUCAAAGUGGAAGCUUUCUUCUCUGAAGUCGAUAUAUGGUUUUGAAUUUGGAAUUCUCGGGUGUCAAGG | -0.67
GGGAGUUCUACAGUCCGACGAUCCAAGUCCUGUGCUACACAUCGUAUGUACCGAAUCGGAAAGGUUUUUUUGGUUUGGAAAGUAUUAUGUUACGCCGUUCGGAUCUGCACUUCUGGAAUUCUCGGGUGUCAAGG | -1.17
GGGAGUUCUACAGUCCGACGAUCUGGUGGACCCGCAGCAGCUGGGCAUGUUCACGGAGGGCGAGCUGAUGUCGGUGGGUAUGGACACGUUCAUCCACCGCAUCGACUCCACCGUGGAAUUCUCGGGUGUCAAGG | -0.884
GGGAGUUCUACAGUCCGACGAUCUAACUUUAGAGGAGGAUCUGAUGGAUAUGGCAGUGGACGUGGAUUUGGGGAAGGCUAUAAUGGGUAUGGAGGAGGACCUGGAGGUGGCAAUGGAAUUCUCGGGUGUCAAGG | 0.103

Series 3
Target: RING finger protein unkempt homolog, zinc fingers 1-6, GST-SBP tag (UNK, Homo sapiens, UniProt Q9C0B0, residues 30-357)
Technique: RNA Bind-n-Seq
Molecule type: RNA
Matrix: in vitro
Tested at: not given
Notes: RNA with constant flanks, human-mouse chimeric sites, ends assumed
Relative to: input RNA pool
Direction: higher = stronger binding
Target sequence (chain): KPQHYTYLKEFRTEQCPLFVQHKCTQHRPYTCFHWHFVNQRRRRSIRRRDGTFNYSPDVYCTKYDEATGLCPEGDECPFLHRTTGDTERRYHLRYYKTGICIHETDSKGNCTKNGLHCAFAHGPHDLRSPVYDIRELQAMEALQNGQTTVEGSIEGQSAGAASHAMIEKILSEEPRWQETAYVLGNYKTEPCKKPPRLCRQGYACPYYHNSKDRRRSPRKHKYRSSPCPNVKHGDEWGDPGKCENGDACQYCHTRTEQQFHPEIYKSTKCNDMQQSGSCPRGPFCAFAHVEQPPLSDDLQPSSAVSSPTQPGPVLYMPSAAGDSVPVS
Strand | bound/input enrichment [ratio]
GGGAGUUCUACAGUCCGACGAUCGUGACUGGUGUUAAGAUUUCCCCUCAGCAAAGAAGUGCAGUAGUCACCAUAAUUCCAUCUGUGGUGAAUGCCAAUCAGAUUGUGGAGCUGGUCCCAGACCUCAGUUUAGAUACUGGGACUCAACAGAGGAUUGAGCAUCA | 0.241
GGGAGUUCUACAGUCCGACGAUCGUUGCCAGCUUCCGGUUCCGUUGGGCUCGGUUCUCUCCUGAGCUACGUGUCUCUACGCUCUCAAUCCGCCAUCCAACAAACAUGGAUCAGGUAAUGCUGCAGUUUGUUGAGCCAAGUCAGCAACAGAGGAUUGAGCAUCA | 0.0882
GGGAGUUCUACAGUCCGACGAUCAAAGAACCUCUCUCUGAUGAAGAUGAGGAAGACAAUGAUGAUGUUGAACCUAUUACUGAAUUUCGAUUUGUGCCUAGUGAUAAGUCAGCAUUGGAGGCGAUGUUCACAGCAAUGUGUGAGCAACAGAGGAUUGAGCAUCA | 0.376
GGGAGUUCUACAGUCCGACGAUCCUGAGGAUACCACUGAAGAGACCUUAAAAGAAUCAUUUGAGGGCUCUGUUCGUGCAAAGGAUAGUUAUGAUCGGGAAACUGGUUCUUCCAAAGGGUUUGGUUUUGUAAGACUUCAACGUGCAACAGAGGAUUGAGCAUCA | 0.309
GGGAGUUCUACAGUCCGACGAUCCGCUGGCCCAAGCUGAUGGACUCUGAUGGCCUCCAUCUCUCAGGCACGUGUGCCUUCUCUUAGUCCCUGUUUUCGGGUCACAAAGCUUCUCAGUACUGUGGUUUGAAAGCAGUUAUGUUGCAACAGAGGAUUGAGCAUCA | 0.332
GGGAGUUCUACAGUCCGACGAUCAGAGCCCAGGAUGUUGAUGCUACAAACCCAAAUUAUGAAAUUAUGUGUAUGAUCAGAGACUUCAGAGGGAGCUUGGAUUACAGACCCCUAACAACAGCAGAUCCUAUUGAUGAACAUAGGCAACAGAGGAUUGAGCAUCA | 0.371
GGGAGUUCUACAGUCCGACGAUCGGACAUCUGUCAAAUUGUUAUGUUCCUGUGAAACAAGUGAACACUCUUCAUAUACUAAUCUGCUUGUACAUCUGUAUGAUAGAGAAAUGUAAAUAUGUUAAUCCAAGCAAUGUGUCACUUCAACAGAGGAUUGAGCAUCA | 0.229
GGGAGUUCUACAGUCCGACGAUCCUGUGACUGAUGGCAGCUACCUGAGUGGCAGCUGAAGUUGACUCCCUCUCCUUGCCUGCCUAGUUUCCCACUGCCCCCCCAUCCCCCAGUGUCGGCUGAGAUGUUGCCUCUGCACGGUUCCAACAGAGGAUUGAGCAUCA | 1.71
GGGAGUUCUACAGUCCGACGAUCGCUCCUCCCCGCUCUGCCCCUGCCUGCCACUGGGCUGGGACCAGAAUCCAGCUUUCUUUUAAAACUCUCAGUGUAACUGUAUCCCGUGACAUUUCAUUUUUUUUUUAUAGUGUAUUUUUUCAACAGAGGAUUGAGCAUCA | 20.2
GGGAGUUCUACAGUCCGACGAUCACCUCCCCCUCCCGCCUCACCCCACCCCCGCUUUUUGGAAAGUUUUUGGCGUUUCUUUUCCUUCCCCAUACAAAGUGAUUACAGUUUCCCCCGCAAGUGGGGCUUGAUUCACCCUUCGGACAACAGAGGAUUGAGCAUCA | 4.45
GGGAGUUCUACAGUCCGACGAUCUACUACUAUGAUGGUGAUAUUGGCAAUUAUUAUUAUGGACAGGGUCAUCCCAUGAAGCCUCAUAGAAUCCGGAUGACCCAUAACUUGCUGCUAAAUUAUGGUUUAUACCGAAAAAUGGAACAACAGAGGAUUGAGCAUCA | 0.274

Series 4
Target: PABPC1L2, full length, GST fusion (mouse, UniProt A0ABA7IW68)
Technique: RNAcompete
Molecule type: RNA
Matrix: in vitro
Tested at: 20 nM
Notes: 7-mer, probes averaged, single round
Relative to: mean of 7-mers
Direction: higher = stronger binding
Residues (chain): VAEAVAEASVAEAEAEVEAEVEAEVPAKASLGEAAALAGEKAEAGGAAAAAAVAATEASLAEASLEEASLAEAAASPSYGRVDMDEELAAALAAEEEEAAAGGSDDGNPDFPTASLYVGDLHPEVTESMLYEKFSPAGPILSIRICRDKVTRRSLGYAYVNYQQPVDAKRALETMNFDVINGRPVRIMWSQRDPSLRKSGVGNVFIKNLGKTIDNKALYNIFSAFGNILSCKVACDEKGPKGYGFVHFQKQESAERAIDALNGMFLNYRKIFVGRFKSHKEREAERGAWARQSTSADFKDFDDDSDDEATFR
Strand | 7-mer Z-score
CCGCAGG | -0.155
CAGGAAG | -0.0156
AUUUGAU | -0.173
UAAUGAU | -0.211
ACAUGAU | -0.0138
AGAUGCA | -0.277
CAUUGAU | -0.0917
CAACGCG | -0.0047
UAUAACC | -0.124
ACGAGUU | -0.226
UUUGCGG | -0.347
UUAGGUA | -0.0554
CGCCAGG | -0.287
ACUAAGC | -0.0192
AUUACAU | -0.0047
ACCUUGU | -0.26
AAUGCCG | 0.129
CAAGAAA | 1.58
UAUGCGA | 0.0913
CGCUAUA | -0.117
UUGAUGA | -0.18
GUUCGUC | -0.51
CAGGUCC | -0.262
